Measured values from different studies.
Parts stem from different laboratories: compare values within a part only.
UniProt Q9UM73, sequence (whole entry, unmodified, looked up): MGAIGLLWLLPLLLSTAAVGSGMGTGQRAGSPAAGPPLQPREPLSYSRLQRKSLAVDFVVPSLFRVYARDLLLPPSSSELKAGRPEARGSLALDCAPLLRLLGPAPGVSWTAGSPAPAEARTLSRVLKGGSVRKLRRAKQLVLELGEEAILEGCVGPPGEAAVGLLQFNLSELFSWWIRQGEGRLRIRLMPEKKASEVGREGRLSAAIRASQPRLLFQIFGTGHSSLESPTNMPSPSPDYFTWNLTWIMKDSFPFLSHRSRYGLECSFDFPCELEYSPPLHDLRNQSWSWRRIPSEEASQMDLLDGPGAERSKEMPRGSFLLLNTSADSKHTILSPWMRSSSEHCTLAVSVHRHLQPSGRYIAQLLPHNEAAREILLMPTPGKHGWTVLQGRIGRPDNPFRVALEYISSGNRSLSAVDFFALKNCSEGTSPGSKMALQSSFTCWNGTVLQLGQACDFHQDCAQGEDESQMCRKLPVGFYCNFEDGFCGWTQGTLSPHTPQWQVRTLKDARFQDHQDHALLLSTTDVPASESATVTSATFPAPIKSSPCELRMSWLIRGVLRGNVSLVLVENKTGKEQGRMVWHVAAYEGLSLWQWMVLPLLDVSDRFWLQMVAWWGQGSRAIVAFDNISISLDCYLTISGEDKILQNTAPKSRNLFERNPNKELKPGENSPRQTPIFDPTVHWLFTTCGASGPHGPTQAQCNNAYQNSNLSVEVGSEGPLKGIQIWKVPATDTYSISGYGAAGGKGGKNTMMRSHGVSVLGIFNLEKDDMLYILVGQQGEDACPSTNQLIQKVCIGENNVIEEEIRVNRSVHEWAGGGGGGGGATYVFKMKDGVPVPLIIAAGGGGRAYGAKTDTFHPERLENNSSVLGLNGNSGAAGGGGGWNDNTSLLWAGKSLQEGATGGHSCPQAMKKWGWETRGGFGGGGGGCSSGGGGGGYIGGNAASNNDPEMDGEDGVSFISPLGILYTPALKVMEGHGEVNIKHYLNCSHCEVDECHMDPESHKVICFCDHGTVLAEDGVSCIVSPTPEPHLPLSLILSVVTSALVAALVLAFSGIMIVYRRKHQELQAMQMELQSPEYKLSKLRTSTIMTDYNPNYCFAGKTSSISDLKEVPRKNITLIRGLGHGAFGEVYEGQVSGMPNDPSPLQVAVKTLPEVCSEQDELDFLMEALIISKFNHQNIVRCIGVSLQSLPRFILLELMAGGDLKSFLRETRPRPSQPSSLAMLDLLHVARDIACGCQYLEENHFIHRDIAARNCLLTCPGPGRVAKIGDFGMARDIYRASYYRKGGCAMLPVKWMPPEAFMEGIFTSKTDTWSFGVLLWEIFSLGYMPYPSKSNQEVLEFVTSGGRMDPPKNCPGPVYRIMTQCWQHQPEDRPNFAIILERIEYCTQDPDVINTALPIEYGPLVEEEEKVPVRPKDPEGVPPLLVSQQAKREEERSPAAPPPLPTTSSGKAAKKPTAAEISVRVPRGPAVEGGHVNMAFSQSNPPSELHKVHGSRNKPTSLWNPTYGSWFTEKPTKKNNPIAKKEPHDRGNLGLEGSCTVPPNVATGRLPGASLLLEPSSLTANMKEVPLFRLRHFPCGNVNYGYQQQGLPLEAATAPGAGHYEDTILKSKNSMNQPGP
UniProt Q16566, sequence (whole entry, looked up): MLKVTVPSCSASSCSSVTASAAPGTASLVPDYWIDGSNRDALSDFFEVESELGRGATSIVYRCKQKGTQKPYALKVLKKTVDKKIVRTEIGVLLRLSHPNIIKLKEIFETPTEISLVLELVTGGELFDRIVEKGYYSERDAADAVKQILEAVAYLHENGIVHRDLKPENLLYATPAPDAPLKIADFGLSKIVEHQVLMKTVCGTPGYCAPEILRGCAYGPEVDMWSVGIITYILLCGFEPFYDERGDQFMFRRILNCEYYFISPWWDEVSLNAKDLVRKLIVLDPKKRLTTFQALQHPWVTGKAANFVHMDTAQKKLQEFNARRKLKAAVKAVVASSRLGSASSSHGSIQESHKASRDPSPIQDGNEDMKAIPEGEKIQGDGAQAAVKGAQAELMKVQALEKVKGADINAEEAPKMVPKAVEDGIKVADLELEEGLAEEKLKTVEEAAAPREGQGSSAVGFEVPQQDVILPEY
UniProt Q9HC98, sequence (whole entry, looked up): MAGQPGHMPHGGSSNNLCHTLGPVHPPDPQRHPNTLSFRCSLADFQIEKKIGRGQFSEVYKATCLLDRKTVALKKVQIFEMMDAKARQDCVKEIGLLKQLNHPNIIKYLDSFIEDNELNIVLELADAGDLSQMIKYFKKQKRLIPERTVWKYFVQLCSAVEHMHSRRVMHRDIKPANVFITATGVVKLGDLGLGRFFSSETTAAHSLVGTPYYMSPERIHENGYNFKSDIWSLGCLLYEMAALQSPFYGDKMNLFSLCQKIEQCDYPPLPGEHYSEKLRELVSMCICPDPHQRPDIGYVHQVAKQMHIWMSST
UniProt Q96RR4, sequence (whole entry, looked up): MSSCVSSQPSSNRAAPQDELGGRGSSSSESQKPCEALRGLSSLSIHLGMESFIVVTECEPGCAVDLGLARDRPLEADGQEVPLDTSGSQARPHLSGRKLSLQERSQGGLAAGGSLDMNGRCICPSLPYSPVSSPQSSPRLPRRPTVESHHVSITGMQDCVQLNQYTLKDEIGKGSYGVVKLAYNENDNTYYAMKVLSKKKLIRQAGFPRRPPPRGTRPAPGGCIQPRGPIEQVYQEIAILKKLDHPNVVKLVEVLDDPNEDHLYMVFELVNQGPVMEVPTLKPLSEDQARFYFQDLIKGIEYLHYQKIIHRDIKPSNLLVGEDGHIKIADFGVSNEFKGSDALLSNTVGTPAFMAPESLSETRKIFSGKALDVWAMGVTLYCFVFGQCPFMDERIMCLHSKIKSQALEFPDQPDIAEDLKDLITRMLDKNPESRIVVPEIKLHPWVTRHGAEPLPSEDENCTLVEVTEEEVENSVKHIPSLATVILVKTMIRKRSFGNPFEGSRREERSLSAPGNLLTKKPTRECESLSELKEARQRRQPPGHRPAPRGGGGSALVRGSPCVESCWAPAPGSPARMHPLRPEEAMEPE
UniProt Q8WU08, sequence (whole entry, looked up): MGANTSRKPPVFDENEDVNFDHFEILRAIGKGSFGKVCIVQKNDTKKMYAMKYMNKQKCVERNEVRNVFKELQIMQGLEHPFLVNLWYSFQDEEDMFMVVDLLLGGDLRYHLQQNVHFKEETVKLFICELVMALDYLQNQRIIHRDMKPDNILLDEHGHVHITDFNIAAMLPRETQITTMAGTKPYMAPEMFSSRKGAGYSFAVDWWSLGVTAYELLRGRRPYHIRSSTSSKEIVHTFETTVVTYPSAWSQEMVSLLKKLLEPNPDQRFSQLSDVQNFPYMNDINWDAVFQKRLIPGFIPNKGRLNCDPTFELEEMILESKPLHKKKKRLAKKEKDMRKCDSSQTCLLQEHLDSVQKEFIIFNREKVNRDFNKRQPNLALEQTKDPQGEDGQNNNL
UniProt P57078, sequence (whole entry, looked up): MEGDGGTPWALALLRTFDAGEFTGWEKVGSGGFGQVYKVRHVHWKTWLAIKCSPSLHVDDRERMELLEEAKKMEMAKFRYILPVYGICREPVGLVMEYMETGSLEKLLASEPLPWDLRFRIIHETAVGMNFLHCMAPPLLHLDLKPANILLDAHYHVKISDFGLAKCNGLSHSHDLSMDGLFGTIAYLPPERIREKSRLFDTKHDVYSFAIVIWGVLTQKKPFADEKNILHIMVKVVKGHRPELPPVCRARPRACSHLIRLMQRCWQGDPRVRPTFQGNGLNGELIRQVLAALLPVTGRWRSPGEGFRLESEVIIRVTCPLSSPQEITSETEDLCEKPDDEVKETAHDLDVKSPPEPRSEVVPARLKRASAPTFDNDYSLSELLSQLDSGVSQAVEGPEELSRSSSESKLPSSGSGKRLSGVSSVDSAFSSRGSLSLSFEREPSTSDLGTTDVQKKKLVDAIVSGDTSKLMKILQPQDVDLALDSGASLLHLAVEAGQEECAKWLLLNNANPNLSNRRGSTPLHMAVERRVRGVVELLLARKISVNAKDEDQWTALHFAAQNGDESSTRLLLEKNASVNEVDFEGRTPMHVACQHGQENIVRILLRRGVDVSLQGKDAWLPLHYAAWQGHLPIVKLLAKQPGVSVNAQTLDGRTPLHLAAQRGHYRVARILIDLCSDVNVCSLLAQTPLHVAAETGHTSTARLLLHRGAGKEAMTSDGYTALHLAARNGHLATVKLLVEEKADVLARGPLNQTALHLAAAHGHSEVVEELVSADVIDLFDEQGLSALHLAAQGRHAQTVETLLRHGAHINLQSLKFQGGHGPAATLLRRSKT

Sample 1
Target: Serine/threonine-protein kinase Nek9 (NEK9, Homo sapiens, UniProt Q8TD19)
Effect on: enzyme activity
Action: inhibitor
Tested at: 0.5 µM
Baseline: control
Target sequence (Q8TD19 1-979): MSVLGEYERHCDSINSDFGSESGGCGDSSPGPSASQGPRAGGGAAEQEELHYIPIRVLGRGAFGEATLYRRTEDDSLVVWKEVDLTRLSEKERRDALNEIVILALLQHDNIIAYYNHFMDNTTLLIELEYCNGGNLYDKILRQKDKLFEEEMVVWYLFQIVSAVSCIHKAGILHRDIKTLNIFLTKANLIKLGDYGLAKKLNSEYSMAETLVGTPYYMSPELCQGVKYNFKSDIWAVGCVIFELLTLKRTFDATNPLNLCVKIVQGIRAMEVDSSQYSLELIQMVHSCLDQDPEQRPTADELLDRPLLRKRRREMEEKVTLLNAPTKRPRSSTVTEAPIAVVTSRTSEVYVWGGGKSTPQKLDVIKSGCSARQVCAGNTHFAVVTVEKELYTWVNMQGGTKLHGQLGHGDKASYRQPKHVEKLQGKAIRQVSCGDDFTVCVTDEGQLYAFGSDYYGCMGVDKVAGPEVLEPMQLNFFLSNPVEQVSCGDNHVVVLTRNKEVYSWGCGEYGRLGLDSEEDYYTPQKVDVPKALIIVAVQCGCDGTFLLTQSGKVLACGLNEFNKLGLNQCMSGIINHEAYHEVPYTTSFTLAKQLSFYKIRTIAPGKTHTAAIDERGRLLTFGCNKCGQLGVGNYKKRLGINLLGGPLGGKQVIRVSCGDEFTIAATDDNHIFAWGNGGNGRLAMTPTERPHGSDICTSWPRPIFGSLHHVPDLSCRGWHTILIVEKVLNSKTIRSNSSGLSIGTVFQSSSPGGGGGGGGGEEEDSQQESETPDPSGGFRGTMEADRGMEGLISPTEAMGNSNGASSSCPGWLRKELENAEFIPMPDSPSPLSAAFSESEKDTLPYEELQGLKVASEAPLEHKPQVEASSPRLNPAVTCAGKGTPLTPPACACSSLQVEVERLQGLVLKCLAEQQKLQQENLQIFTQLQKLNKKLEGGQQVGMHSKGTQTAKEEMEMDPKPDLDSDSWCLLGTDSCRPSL
For `CC(C)n1cnc2c(Nc3cccc(Cl)c3)nc(NCCO)nc21`, the remaining activity was 81.1%.
`CCCNC(=O)Nc1ccc(Oc2ncnc3cc(OC)c(OC)cc23)cc1Cl` has a remaining activity of 83.3%.
`NC(=O)c1cccc(-c2cc(Nc3ccc(OC(F)(F)F)cc3)ncn2)c1` has a remaining activity of 93.8%.
`O=C1NC(=O)c2c1c1c3ccccc3[nH]c1c1[nH]c3cc(Br)ccc3c21` gave a remaining activity of 83.6%.
For `O=Nc1c(-c2c(O)[nH]c3cc(Br)ccc23)[nH]c2ccccc12`, the remaining activity was 96.3%.
For `FC(F)(F)c1ccc(/C=C/c2nc(COc3ccc(CCCCn4ccnn4)cc3)co2)cc1`, the remaining activity was 95.5%.
With `NC(=O)c1ccc(-c2nc(-c3ccc4c(c3)OCCO4)c(-c3ccccn3)[nH]2)cc1` the remaining activity was 94.7%.
`O=C1c2ccccc2-c2nc3nnnn3nc21` gave a remaining activity of 119%.
The remaining activity of `CN(C)S(=O)(=O)c1ccc2c(c1)/C(=C/c1cc3c([nH]1)CCCC3)C(=O)N2` is reported as 93.2%.
`c1cc(-c2cnn3cc(-c4ccc(OCCN5CCCCC5)cc4)cnc23)ccn1` has a remaining activity of 96.4%.
For `CCCCc1c(-c2ccc(OC)cc2)[nH]c2nccnc12`, the remaining activity was 106%.
`O=Nc1c(-c2c(O)[nH]c3ccccc23)[nH]c2ccccc12` has a remaining activity of 95.4%.
The remaining activity of `COc1cc2c(N3CCN(C(=O)Nc4ccc(OC(C)C)cc4)CC3)ncnc2cc1OCCCN1CCCCC1` is reported as 97.2%.
For `Cc1cc(Nc2cc(N3CCN(C)CC3)nc(Sc3ccc(NC(=O)C4CC4)cc3)n2)[nH]n1`, the remaining activity was 102%.
The remaining activity of `CC(C)N(CCC(=O)c1ccc2ccccc2c1)Cc1ccccc1` is reported as 96.4%.
For `COc1ccc2c(c1)c(C1=C(c3c[nH]c4ccccc34)C(=O)NC1=O)cn2CCCN(C)C`, the remaining activity was 90.3%.
`O=C(c1cc2cc(O)ccc2[nH]1)c1cc2cc(O)ccc2[nH]1` gave a remaining activity of 93.6%.

Sample 2
Method: PRP chromatography
Notes: linear fit, 1 mL
`CC(C)C[C@@H]1NC(=O)[C@H](Cc2cscn2)NC(=O)[C@H](Cc2cscn2)NC(=O)[C@@H](CC(C)C)NC(=O)[C@@H](CCC(=O)N2CCCC2)NC(=O)[C@H](CC(C)C)NC(=O)[C@@H](CC(C)C)NC1=O` has a logD 1,9-decadiene/water of -0.682 log units.
The logD 1,9-decadiene/water of `CC(C)C[C@@H]1NC(=O)[C@H](CC(C)C)NC(=O)[C@H](CC(C)C)NC(=O)[C@@H](C)NC(=O)[C@H](C(C)C)NC(=O)[C@H](Cc2cscn2)NC(=O)[C@H](C)NC1=O` is reported as -3 log units.
`CC(C)C[C@@H]1NC(=O)[C@H](C)NC(=O)[C@H](CC(C)C)NC(=O)[C@@H](CC(C)C)NC(=O)[C@H](CC(C)C)NC(=O)[C@H](C)NC(=O)[C@@H](CC(C)C)NC1=O` gave a logD 1,9-decadiene/water of -0.346 log units.
`CC(C)C[C@@H]1NC(=O)[C@H](C)NC(=O)[C@H](Cc2cscn2)NC(=O)[C@H](CC(C)C)NC(=O)[C@H](C(C)C)NC(=O)[C@H](CC(C)C)NC(=O)[C@@H](CC(C)C)NC1=O` has a logD 1,9-decadiene/water of -1.82 log units.
`CC(C)C[C@@H]1NC(=O)[C@H](C(C)C)NC(=O)[C@@H](CC(C)C)NC(=O)[C@@H](CC(C)C)NC(=O)[C@@H](CCC(=O)N2CCCC2)NC(=O)[C@H](CC(C)C)NC(=O)[C@@H](CC(C)C)NC1=O` has a logD 1,9-decadiene/water of 0.481 log units.
`CC(C)C[C@@H]1NC(=O)[C@H](CC(C)C)NC(=O)[C@@H](CC(C)C)NC(=O)[C@H](C(C)C)NC(=O)[C@@H](CCC(=O)N2CCCC2)NC(=O)[C@H](C)NC(=O)[C@H](C)NC1=O` has a logD 1,9-decadiene/water of -2.74 log units.
For `CC(C)C[C@@H]1NC(=O)[C@H](C)NC(=O)[C@@H](CC(C)C)NC(=O)[C@H](C)NC(=O)[C@H](C(C)C)NC(=O)[C@H](CC(C)C)NC(=O)[C@@H](CC(C)C)NC1=O`, the logD 1,9-decadiene/water was -0.77 log units.

Sample 3
Cell line: A-375
Tested at: 100 µM
Time: 36 h
`CC(C)C[C@H](NC(=O)CNC(=O)c1cc(Cl)ccc1Cl)B1OC(=O)C(CC(=O)O)(CC(=O)O)O1` gave a viability of 5.12%.
With `COC(=O)[C@H]1[C@H]2C[C@@H]3c4[nH]c5cc(OC)ccc5c4CCN3C[C@H]2C[C@@H](OC(=O)c2cc(OC)c(OC)c(OC)c2)[C@@H]1OC` the viability was 14.7%.
For `Cn1c(=O)c2c(ncn2CC(=O)O)n(C)c1=O`, the viability was 102%.
`OCC(O)CN1CCN(c2ccccc2)CC1` (stereo not drawn) gave a viability of 77.9%.
For `COC(=O)[C@@H]1CC2=CC(=O)CC[C@]2(C)[C@@]23O[C@@H]2C[C@@]2(C)[C@@H](CC[C@@]24CCC(=O)O4)[C@H]13`, the viability was 102%.
The viability of `NC(=O)CCC(N)C(=O)O` (racemic) is reported as 119%.

Sample 4
Structure (SMILES): CN(C)c1ncnc(-c2ccc3nc(Nc4cc(CN5CCN(C(=O)CC(F)(F)F)CC5)ccn4)[nH]c3c2)c1Cl
Effect on: cell-free assay
Method: competition with immobilised ligand
Tested at: 1 µM
CAMKK2 (Homo sapiens, UniProt Q96RR4) — remaining binding: 88%.
For STK32A (Homo sapiens, UniProt Q8WU08): remaining binding read 85%.
For CAMK4 (Homo sapiens, UniProt Q16566): remaining binding read 89%.
It gave 59% for remaining binding (ALK (Homo sapiens, UniProt Q9UM73, C1156Y)).
The remaining binding was 98% (NEK6 (Homo sapiens, UniProt Q9HC98)).
It gave 100% for remaining binding (RIPK4 (Homo sapiens, UniProt P57078)).
